# Published values from different studies.
# Numbered parts are unrelated; each lists some results of a single study.
# UniProt P51617, sequence (whole entry, looked up): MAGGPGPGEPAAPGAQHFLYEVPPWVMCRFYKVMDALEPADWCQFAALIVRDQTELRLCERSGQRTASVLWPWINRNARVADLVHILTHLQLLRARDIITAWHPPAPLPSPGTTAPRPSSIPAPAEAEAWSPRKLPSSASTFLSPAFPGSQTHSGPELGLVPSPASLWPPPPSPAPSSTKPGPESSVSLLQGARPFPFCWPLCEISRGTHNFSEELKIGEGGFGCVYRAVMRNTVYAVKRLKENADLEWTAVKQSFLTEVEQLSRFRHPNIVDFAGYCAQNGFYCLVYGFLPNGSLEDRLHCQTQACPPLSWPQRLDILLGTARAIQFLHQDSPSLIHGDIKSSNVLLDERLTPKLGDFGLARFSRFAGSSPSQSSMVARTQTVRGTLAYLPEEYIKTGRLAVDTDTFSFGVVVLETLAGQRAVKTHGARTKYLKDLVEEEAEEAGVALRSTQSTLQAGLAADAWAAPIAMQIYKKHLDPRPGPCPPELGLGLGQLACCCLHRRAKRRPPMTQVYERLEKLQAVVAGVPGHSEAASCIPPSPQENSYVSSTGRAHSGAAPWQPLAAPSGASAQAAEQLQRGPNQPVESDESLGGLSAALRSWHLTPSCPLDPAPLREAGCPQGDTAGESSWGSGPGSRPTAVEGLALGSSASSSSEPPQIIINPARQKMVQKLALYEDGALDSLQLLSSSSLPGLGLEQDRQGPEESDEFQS
# UniProt Q8TDX7, sequence (whole entry, looked up): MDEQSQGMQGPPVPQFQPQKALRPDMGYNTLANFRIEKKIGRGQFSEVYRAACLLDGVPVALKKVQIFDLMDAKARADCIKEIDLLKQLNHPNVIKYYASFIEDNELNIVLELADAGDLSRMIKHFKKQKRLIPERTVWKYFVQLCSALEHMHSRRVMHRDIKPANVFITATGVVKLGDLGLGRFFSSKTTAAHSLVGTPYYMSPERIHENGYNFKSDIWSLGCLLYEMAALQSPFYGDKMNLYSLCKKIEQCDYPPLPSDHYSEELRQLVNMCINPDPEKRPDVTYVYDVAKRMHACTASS
# UniProt Q16584, sequence (whole entry, looked up): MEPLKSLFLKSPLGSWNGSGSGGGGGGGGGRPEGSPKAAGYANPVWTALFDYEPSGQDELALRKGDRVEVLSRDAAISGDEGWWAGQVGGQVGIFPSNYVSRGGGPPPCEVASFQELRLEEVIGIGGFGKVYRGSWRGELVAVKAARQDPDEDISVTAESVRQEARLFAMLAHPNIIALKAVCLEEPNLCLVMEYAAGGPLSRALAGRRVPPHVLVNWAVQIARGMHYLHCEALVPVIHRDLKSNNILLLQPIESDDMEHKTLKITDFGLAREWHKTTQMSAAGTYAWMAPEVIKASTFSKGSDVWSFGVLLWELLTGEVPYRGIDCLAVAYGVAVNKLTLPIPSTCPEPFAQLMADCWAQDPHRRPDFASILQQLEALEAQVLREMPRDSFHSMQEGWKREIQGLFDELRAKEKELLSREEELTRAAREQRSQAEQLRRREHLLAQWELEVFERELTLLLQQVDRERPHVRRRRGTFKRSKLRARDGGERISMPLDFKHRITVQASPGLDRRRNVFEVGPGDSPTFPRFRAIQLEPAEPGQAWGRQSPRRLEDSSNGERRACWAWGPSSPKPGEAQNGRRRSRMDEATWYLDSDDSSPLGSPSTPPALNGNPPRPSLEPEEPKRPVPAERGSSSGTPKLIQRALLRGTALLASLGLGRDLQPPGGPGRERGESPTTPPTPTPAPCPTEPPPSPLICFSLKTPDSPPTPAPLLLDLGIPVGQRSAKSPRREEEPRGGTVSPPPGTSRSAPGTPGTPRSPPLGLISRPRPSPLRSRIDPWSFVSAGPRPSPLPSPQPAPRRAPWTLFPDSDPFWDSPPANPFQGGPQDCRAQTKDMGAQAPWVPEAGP
# UniProt P29597, sequence (whole entry, looked up): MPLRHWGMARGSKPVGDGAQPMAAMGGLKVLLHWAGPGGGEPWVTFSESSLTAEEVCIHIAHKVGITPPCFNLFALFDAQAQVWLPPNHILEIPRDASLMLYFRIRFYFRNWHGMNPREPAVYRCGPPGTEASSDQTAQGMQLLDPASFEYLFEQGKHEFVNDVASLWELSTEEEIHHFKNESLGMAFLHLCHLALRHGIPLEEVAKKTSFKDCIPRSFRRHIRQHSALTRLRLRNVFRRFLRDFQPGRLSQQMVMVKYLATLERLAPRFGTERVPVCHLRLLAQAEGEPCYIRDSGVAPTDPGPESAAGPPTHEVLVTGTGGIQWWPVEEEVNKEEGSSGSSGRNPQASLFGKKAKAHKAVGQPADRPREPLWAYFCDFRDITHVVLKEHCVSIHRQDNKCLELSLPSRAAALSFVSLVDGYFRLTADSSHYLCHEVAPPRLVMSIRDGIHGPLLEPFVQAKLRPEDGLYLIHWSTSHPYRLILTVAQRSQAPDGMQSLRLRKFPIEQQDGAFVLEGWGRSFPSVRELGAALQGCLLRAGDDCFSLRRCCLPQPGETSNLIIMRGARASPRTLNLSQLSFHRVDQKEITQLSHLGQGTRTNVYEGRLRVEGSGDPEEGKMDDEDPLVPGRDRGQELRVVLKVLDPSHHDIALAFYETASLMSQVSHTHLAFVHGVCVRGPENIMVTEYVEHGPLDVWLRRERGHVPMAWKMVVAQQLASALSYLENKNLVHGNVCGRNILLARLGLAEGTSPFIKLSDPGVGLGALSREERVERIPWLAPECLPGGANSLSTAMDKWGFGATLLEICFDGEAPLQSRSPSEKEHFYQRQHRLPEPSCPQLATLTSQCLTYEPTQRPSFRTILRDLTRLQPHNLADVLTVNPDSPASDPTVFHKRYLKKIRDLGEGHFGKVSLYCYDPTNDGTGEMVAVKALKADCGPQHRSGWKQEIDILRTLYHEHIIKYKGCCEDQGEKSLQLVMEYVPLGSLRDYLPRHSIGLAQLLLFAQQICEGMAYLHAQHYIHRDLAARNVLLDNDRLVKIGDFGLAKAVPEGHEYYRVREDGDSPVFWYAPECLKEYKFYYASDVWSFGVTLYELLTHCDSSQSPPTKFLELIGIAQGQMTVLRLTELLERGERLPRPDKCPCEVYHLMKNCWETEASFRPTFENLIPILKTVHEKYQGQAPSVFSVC
# UniProt Q9HCP0, sequence (whole entry, looked up): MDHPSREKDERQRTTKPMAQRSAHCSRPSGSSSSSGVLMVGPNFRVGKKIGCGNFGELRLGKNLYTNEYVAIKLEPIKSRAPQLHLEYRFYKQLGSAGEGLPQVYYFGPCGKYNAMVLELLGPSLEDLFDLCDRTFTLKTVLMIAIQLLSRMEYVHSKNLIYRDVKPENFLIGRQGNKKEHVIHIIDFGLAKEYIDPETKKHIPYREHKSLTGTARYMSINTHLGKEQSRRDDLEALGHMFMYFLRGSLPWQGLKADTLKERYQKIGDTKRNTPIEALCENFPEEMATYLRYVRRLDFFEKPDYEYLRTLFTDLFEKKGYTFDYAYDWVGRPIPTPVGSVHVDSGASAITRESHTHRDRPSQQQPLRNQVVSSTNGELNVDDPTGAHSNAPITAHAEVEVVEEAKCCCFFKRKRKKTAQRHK
# UniProt Q8IW41, sequence (whole entry, looked up): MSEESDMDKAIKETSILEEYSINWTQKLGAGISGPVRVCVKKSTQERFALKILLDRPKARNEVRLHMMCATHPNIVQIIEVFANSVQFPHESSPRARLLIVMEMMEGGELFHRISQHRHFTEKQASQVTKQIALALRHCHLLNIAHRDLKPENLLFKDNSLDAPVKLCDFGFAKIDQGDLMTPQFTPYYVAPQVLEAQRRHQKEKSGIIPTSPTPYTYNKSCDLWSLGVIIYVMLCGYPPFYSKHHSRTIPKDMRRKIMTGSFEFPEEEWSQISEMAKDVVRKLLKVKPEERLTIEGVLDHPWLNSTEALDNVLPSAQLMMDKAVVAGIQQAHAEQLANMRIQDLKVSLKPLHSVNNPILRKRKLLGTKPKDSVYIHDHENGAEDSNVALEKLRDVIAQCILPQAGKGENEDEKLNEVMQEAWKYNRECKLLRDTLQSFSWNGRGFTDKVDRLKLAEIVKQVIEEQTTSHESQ

# Set 1 — read-out: enzyme activity; action: inhibitor; method: ADP-Glo
# Compound: CNC(=O)c1ccc(-c2cnn3ccc(C(=O)N(C)c4ccc(Cl)c(C(=O)OC)c4)cc23)cc1
# Target: Phosphatidylinositol 4-kinase (Cryptosporidium parvum, UniProt Q5CVD3)
setting,inhibition [%]
0.002222 µM,101
2.74e-05 µM,96.7
8.23e-05 µM,99
0.006667 µM,101
9.15e-06 µM,85

# Set 2 — read-out: enzyme activity; action: inhibitor; concentration: 0.5 µM; baseline: control
# SMILES: CCn1cnc2c(Nc3cccc(Cl)c3)nc(N[C@H]3CCCC[C@H]3N)nc21
target,remaining activity
"Protein kinase C beta type, isoform beta-II (PRKCB, Homo sapiens, UniProt P05771)",79.4%
"Casein kinase I isoform gamma-1 (CSNK1G1, Homo sapiens, UniProt Q9HCP0)",56.8%
"Mitogen-activated protein kinase kinase kinase 11 (MAP3K11, Homo sapiens, UniProt Q16584)",77.6%
"Receptor tyrosine-protein kinase erbB-4 (ERBB4, Homo sapiens, UniProt Q15303)",103%
"Serine/threonine-protein kinase Nek7 (NEK7, Homo sapiens, UniProt Q8TDX7)",86%
"MAP kinase-activated protein kinase 5 (MAPKAPK5, Homo sapiens, UniProt Q8IW41)",98.3%
"Non-receptor tyrosine-protein kinase TYK2 (TYK2, Homo sapiens, UniProt P29597)",110%
"Interleukin-1 receptor-associated kinase 1 (IRAK1, Homo sapiens, UniProt P51617)",81.7%

# Set 3 — cell line: Huh-7; concentration: 10 µM; time: 24 h
Structure (SMILES),viability [%]
O=C1CC[C@@]2(O)[C@H]3Cc4ccc(O)c5c4[C@@]2(CCN3CC2CC2)[C@H]1O5,99.4
C=CCC1(C(C)CCC)C(=O)N=C(S)NC1=O (stereo not shown),98.9
COc1cccc([C@@]2(O)CCCC[C@@H]2CN(C)C)c1,97.8
CNC(C)(C)Cc1ccccc1,98.8
CC(C)CC(N(C)C)C1(c2ccc(Cl)cc2)CCC1 (stereo not shown),98.8

# Set 4 — read-out: binding; method: radioligand binding; concentration: 10 µM
# Target: Muscarinic acetylcholine receptor M3 (CHRM3, Homo sapiens, UniProt P20309)
# UniProt P20309, sequence (whole entry, looked up): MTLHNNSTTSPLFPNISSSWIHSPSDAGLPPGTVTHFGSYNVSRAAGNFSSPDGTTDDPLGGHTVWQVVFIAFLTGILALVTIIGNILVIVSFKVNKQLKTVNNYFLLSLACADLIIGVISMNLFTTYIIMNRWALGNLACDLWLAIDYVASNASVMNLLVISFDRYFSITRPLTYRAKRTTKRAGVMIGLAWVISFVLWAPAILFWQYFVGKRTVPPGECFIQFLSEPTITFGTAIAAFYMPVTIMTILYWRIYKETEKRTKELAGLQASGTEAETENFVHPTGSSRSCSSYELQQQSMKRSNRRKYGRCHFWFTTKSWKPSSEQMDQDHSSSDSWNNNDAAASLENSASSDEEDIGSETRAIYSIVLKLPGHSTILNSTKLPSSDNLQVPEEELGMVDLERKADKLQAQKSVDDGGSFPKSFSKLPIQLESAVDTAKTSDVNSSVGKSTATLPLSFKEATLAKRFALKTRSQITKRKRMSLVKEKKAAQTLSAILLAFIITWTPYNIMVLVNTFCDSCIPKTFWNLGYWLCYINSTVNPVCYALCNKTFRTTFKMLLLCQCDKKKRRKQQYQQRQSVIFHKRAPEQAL
Compound,inhibition [%]
CN(C)C(=O)Cn1cc(-c2nc([C@@](C)(c3ccc(-c4cnc(N)nc4)cc3)C3CC3)no2)cn1,7.43
CC(=O)Nc1c(F)cc(C(=O)N[C@H]2CC[C@H](O)CC2)cc1O[C@@H](C)c1ccccc1,16
CC(C)(O)c1cncc(-c2nc3ccc(F)cc3n2C2CC2)c1,1.04
COCc1nc2cnc3cc(-c4c(C)noc4C)c(OC[C@H]4CCNC4)cc3c2n1[C@H](C)c1ccccc1,-3.35
Cc1nc(Cc2cccc(C(F)(F)F)c2)sc1-c1ccc(C(N)=O)nc1,-11.9
CC(=O)C1=C(C)N(c2cccc(C(F)(F)F)c2)C(=O)N[C@@H]1c1ccc(C#N)nc1,10.4
CC(C)CC(=O)N1CCc2nc(-c3ccc(Br)cc3)nc(N(C)Cc3ccccc3)c2C1,13.5
CCOC(=O)c1cc2cc(-c3cc(C(=O)NCc4ccc(C(=O)O)cc4)nn3C)ccc2[nH]1,4.89
COc1cccc(CNC(=O)c2nc3scc(COCc4ccc(C(=O)O)cc4)c3c(=O)[nH]2)c1,-13
COc1cc(-c2cn(C3CCc4ccccc4N(CC(F)(F)F)C3=O)nn2)ccc1-n1ccc(C)n1 (stereo not shown),-6.94
O=C(O)c1cc(-c2ccc(C3CCNCC3)cc2)c2ccc(-c3ccc(C(F)(F)F)cc3)cc2c1,9.47
O=C(NC[C@@H]1[C@H]2CN(C(=O)OCc3cc(C(F)(F)F)cc(C(F)(F)F)c3)C[C@@H]12)c1ccc2[nH]nnc2c1,-25.5
Cc1nc(C2CCN(C(=O)c3ccc(OC(F)(F)F)cc3N)CC2)c2ncc(N3CCN(C)CC3)cc2n1,18.6
CC(=O)c1c(NS(C)(=O)=O)c2cc(-c3ccc(Cl)cc3)c(-c3ccc(Cl)cc3Cl)nc2n(C)c1=O,4.36
Cc1cc(-n2nc(Cc3cc(F)cc(C(F)(F)F)c3)nc2C)ccc1C(N)=O,1.72
Cc1cc(C)c(-n2ccn3nc(-c4cccnc4)cc23)cc1NC(=O)c1cc(C#N)cc(S(F)(F)(F)(F)F)c1,10.5
CCOCCn1cc(C(=O)Nc2ccc(-n3nc(-c4cccnc4)cc3C(F)(F)F)cn2)ccc1=O,10.2
O=C(Nc1cnc(Oc2ccc(F)cc2)nc1)N1CCc2ncccc2[C@@H]1c1ccc(F)cc1,-12.3
O=C(Nc1cccnn1)N1CC(CC=Cc2cncc(Oc3ccc(C(F)(F)F)cn3)n2)C1,0.26
O=C(Nc1ccc(-n2nc(-c3cccnc3)cc2C(F)(F)F)cn1)c1ccc(-c2ccccc2)c(F)c1,3.71
CS(=O)(=O)NCC[C@H](NC(=O)c1cncc2c1cnn2-c1ccc(F)cc1)c1ccnc(S(C)(=O)=O)c1,-13.8
CN1CCN(C(=O)C(C)(C)c2ccc(C(=O)Nc3cn4cc(-c5ccncc5)ccc4n3)cc2)CC1,21.1
O=C1c2ccc(Nc3ccc(F)cc3F)cc2CCc2ccc(OC[C@H](O)CO)cc21,11.2
Cc1c[nH]c2nccc(Oc3c(F)cc(Nc4cc(Cl)nc(N)n4)cc3F)c12,-0.34
O=C(Nc1cccnn1)N1CCC(=Cc2cccc(Oc3ccc(C(F)(F)F)cn3)c2)CC1,27.5

# Set 5 — read-out: enzyme activity; action: inhibitor; concentration: 10 µM
# Target: Calcium/calmodulin-dependent protein kinase type II subunit alpha (CAMK2A, Homo sapiens, UniProt Q9UQM7)
# UniProt Q9UQM7, sequence (whole entry, looked up): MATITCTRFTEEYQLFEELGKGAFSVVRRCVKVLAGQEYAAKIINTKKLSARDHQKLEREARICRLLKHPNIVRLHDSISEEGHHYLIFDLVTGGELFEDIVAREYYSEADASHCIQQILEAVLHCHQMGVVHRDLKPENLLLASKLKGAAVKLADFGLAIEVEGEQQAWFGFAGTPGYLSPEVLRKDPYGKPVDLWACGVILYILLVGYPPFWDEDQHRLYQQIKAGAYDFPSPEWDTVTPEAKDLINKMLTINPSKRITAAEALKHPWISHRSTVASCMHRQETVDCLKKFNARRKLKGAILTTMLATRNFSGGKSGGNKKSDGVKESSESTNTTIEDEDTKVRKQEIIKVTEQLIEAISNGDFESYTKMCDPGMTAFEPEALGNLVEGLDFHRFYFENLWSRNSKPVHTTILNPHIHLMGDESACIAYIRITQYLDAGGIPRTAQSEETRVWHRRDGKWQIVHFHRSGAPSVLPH
SMILES,inhibition [%]
Nc1ncnc2c1ccn2[C@@H]1O[C@H](CO)[C@@H](O)[C@H]1O,4
CO[C@H]1CC=C2CCN3CCC4=C(CC(=O)OC4)[C@]23C1,-11
O=C(O)c1cc2c(c3c1c([N+](=O)[O-])cc1ccccc13)OCO2,-22
C/C=C1/CN2[C@H]3Cc4c([nH]c5ccccc45)[C@]2(O)C[C@@H]1[C@@]3(CO)C(=O)OC,19
C[C@@H]1CC[C@@]2(OC1)O[C@H]1C[C@H]3[C@@H]4CC=C5C[C@@H](O[C@@H]6O[C@H](CO)[C@@H](O[C@@H]7O[C@@H](C)[C@H](O)[C@@H](O)[C@H]7O)[C@H](O)[C@H]6O[C@@H]6O[C@@H](C)[C@H](O)[C@@H](O)[C@H]6O)CC[C@]5(C)[C@H]4CC[C@]3(C)[C@H]1[C@@H]2C,-7
CC(C)=CCC[C@H](C(=O)O)[C@@H]1CC[C@]2(C)C3=C(CC[C@@]12C)[C@@]1(C)CCC(=O)C(C)(C)[C@@H]1CC3,-37
CC1=C[C@]23C(=O)[C@@H](C=C(COC(=O)c4ccccc4)[C@@H](O)[C@]2(O)[C@H]1OC(=O)c1ccccc1)[C@H]1[C@@H](C[C@H]3C)C1(C)C,5
CC[C@]12C=CCN3CC[C@]4(C(=C(C(=O)OC)C1)Nc1ccccc14)[C@@H]32,30
C[C@@]12C[C@@H](c3ccoc3)OC(=O)[C@@H]1CC[C@]1(C)[C@H]2[C@@H]2C=C[C@@]1(O)C(=O)O2,-3

# For quick reference, copied from above (set 4):
Compound,inhibition [%]
Cc1c[nH]c2nccc(Oc3c(F)cc(Nc4cc(Cl)nc(N)n4)cc3F)c12,-0.34
CCOC(=O)c1cc2cc(-c3cc(C(=O)NCc4ccc(C(=O)O)cc4)nn3C)ccc2[nH]1,4.89
CN(C)C(=O)Cn1cc(-c2nc([C@@](C)(c3ccc(-c4cnc(N)nc4)cc3)C3CC3)no2)cn1,7.43
Cc1nc(Cc2cccc(C(F)(F)F)c2)sc1-c1ccc(C(N)=O)nc1,-11.9
CC(C)(O)c1cncc(-c2nc3ccc(F)cc3n2C2CC2)c1,1.04
CN1CCN(C(=O)C(C)(C)c2ccc(C(=O)Nc3cn4cc(-c5ccncc5)ccc4n3)cc2)CC1,21.1
O=C(Nc1cnc(Oc2ccc(F)cc2)nc1)N1CCc2ncccc2[C@@H]1c1ccc(F)cc1,-12.3
O=C(Nc1cccnn1)N1CC(CC=Cc2cncc(Oc3ccc(C(F)(F)F)cn3)n2)C1,0.26
O=C1c2ccc(Nc3ccc(F)cc3F)cc2CCc2ccc(OC[C@H](O)CO)cc21,11.2
